Results of several laboratories.
Numbered parts are unrelated; each lists some results of a single study. Substitutions count along the parent as printed.

Sample 1
Target: CCND2, cyclin fold, Cln2 fusion (human)
Technique: yeast growth competition, sequencing
Matrix: yeast
Notes: weak parent motif
Relative to: not given
Reading: higher = stronger binding
Starting sequence: HIRA docking peptide (human); SLSKRKLELEVET
Variant	normalised enrichment score
SASKRKLELEVET [L2A]	-0.0873
SLSKKKLELEVET [R5K]	0.43
SLSKRKLELEAET [V11A]	-0.0301
SLSKAKAELEVET [R5A L7A]	0.228
SLSKRKAELEVET [L7A]	-0.348
SLSKRKLELAVET [E10A]	-0.0468
SLSKAKLELEVET [R5A]	-0.274
SLSKRKLEAEVET [L9A]	0.73

Sample 2
Target: Ras GTPase-activating protein-binding protein 1, RRM domain (G3BP1, Homo sapiens, UniProt Q13283)
Sequence of UniProt Q13283 (whole entry, looked up): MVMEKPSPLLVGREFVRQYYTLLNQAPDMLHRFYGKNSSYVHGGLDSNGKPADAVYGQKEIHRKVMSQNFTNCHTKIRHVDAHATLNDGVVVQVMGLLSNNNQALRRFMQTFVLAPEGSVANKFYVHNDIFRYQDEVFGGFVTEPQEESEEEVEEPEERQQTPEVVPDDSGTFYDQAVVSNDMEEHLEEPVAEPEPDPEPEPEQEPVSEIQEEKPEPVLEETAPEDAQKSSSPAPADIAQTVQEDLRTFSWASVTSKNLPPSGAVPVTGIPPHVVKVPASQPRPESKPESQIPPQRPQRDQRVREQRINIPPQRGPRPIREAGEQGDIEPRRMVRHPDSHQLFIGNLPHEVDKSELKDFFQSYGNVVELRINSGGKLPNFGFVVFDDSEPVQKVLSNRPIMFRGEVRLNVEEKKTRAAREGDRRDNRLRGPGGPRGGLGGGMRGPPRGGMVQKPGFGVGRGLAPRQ
Technique: RNA Bind-n-Seq
Molecule type: RNA
Matrix: in vitro
Tested at: 1 µM
Notes: whole 134-nt RNA, ends assumed
Added: 150 mM KCl
Relative to: input library
Reading: higher = stronger binding
All sequences stand within: GGGAGUUCUACAGUCCGACGAUC … UGGAAUUCUCGGGUGUCAAGG
Strand	log2 enrichment
UGGCCCUGGUGGCAUGCGGGGAGGAAGAGGUGGCCUCAUGGAUCGUGGUGGUCCCGGUGGAAUGUUCAGAGGUGGCCGUGGUGGAGGCAG	1.22
UAAUUUUAGAGGAGGAUCUGAUGGAUAUGGCAGUGGACGUGGAUUUGGGGAUGGCUAUAAUGGGUAUGGAGGAGGACCUGGAGGUGGCAA	-0.629
UGUGCUACACAUCGUAUGUACCGAAUCGGGGUUUUUUUGGGGUUUUUUUGGGUUUUUUUGGGAAAGUAUUAUGUUACGCCGUUCGGAUCU	-0.153
GCAGGAAGUAAAAACAAAUGGAAAUGCUUCGGAUAGUGGCAGGGGUGGGGGUUGCUAAGGAACGGGUGGGAUGGGAGUGGGUAAAGAGUU	1.03
CUCAAGUCCUGUGCUACACAUCGUAUGUACCGAAUCGGGAAGGAAGGGGAAGGGAAAGUAUUAUGUUACGCCGUUCGGAUCUGCACUUCC	0.585
UGGCCCUGGUGGCCUGCGGGGAGGAAGAGGUGGCCUCAUGGAUCGUGGUGGUCCCGGUGGAAUGUUCAGAGGUGGCCGUGGUGGAGACAG	0.836
AAGUCCUGUGCUACACAUCGUAUGUACCGAAUCGGAAAGGAAAAAGGAAAAAAAGGAAAGUAUUAUGUUACGCCGUUCGGAUCUGCACUU	-0.0674
GUCCUGUGCUACACAUCGUAUGUACCGAAUCGGGAAAAAGGGUUUGGGUUUUUUUGGGAAAGUAUUAUGUUACGCCGUUCGGAUCUGCAC	0.0643
UCCUGUGCUACACAUCGUAUGUACCGAAUCGGGUUUUUUGGGUUUUUUGGGGUUUUUUGGAAAGUAUUAUGUUACGCCGUUCGGAUCUGC	-0.0521
ACCAUGCAGGUGGGCAUCUUUGGGAAGUGGGGCAAGGGGGGGAGAGGGAGGGGGGUAACACUUUGGGAACAGGUGGUCCCAGGUCGUUUC	1.08
CACAGACAACACGCACCCACACAGACACAGAGGGAAGGGGUUGGGAUGGGGACAGGGUGCACAGCAGGGCGGGGUAGGACCCCAGCUCCU	-0.404
CCUCAAGUCCUGUGCUACACAUCGUAUGUACCGAAUCGGAGGGGAGGGAGGGAAAGUAUUAUGUUACGCCGUUCGGAUCUGCACUUCCAG	0.352
CAAGUCCUGUGCUACACAUCGUAUGUACCGAAUCGGAAAAGGGGAAAAGGAAAAGGAAAGUAUUAUGUUACGCCGUUCGGAUCUGCACUU	-0.165
GUCCUGUGCUACACAUCGUAUGUACCGAAUCGGGAAAAAAAGGGUUUUUUUGGGAGGGAAAGUAUUAUGUUACGCCGUUCGGAUCUGCAC	0.292

Sample 3
Target: Sal-like protein 4, full length isoform A (SALL4, Homo sapiens, UniProt Q9UJQ4, residues 1-1053)
Sequence of UniProt Q9UJQ4 (whole entry, looked up): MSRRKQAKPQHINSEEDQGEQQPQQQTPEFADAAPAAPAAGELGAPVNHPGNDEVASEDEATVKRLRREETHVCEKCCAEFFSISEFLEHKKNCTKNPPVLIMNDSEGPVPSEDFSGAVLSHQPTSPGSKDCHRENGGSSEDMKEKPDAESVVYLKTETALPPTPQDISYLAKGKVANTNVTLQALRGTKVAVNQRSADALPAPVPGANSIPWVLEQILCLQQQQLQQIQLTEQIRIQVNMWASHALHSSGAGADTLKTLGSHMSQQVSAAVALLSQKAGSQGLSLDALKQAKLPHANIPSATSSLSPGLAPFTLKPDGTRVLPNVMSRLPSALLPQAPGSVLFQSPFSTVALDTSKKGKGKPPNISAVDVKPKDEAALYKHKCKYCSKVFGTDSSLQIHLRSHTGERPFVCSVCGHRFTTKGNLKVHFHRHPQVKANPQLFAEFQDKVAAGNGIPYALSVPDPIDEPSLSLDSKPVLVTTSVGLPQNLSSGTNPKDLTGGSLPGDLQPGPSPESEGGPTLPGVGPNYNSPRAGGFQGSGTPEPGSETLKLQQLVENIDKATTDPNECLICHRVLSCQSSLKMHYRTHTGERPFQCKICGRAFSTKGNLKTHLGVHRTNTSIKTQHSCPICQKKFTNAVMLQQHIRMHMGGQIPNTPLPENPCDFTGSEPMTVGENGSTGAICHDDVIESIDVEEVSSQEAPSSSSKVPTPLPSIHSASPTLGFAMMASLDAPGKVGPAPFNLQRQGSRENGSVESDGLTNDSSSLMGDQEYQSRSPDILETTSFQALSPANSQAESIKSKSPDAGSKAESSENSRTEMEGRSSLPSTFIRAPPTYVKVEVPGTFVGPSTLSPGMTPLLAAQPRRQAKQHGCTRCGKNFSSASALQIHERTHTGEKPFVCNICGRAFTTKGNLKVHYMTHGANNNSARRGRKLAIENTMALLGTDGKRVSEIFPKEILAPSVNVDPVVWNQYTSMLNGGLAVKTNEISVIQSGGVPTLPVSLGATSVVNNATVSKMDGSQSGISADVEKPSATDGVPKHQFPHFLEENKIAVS
Technique: universal PBM
Molecule type: double-stranded DNA, one strand shown
Matrix: in vitro
Tested at: 600 nM
Notes: 8-mer, flanks averaged, mean of replicates
Reading: higher = stronger binding
Strand	E-score
TACGCCAA	0.00298
GGCATTGA	0.0138
AACGAAAT	0.221
AAACATGT	0.226
ACTAACGA	0.0994
CCTTCCCA	-0.173
CGTATGGC	0.0907
CGGAGTCC	-0.234
ATGCTGCG	-0.153
GACTTTCC	-0.081
CTTTAACC	0.0877
CCTCTTGC	-0.253
AAGGAGAC	-0.0104
CCGGTAAA	0.0064
GAGCTATA	0.123
CAAACTAG	0.0113

Sample 4
Target: Histone acetyltransferase KAT6A, winged helix 1, GST fusion (KAT6A, Homo sapiens, UniProt Q92794, residues 1-85)
Technique: protein binding microarray
Molecule type: double-stranded DNA, one strand shown
Matrix: in vitro
Tested at: not given
Notes: 8-mer, flanks averaged, mean of 2 arrays, mostly near background
Relative to: not given
Reading: higher = stronger binding
Target sequence (chain): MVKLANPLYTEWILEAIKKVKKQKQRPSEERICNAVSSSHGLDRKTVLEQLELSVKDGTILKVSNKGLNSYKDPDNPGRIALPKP
Strand	E-score
AACCCTTC	-0.0192
ACCCCCGC	0.271
AAGCCTGC	-0.0204
CGAAGTCG	0.0651
AGACCATA	-0.106
CCTCGCCG	0.299
ACCTGCAT	-0.141
CGCTAGGA	-0.0768
CGCGACCA	0.323
CGAGTACA	-0.108
CTCATTAA	-0.0671
TAGATAGA	-0.165
AATGTATC	-0.181
CCATCAGC	-0.0184
CGCAACAG	0.109
ATGGTGGG	-0.0375
ATTGCGAG	0.0362
ACCGCACA	0.117
CATCCTAA	-0.123
TAACTCAA	-0.127
GTCGTAGA	-0.146
CGGTTGTA	0.145
CCATCACG	0.0571
GTCCTAAC	-0.0628
GGTGAATA	-0.096

Sample 5
Target: RNA binding protein fox-1 homolog 2, RRM domain, GST-SBP tag (RBFOX2, Homo sapiens, UniProt O43251-10, residues 100-194)
Technique: RNA Bind-n-Seq
Molecule type: RNA
Matrix: in vitro
Tested at: 365 nM
Notes: natural RNA segment, single round, ends assumed
Relative to: no-protein control
Reading: higher = stronger binding
All sequences stand within: GGGAGUUCUACAGUCCGACGAUC … UGGAAUUCUCGGGUGCCAA
Residues (chain): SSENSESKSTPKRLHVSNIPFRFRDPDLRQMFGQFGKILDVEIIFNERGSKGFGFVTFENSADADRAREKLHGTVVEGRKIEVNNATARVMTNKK
Strand	RBNS enrichment (R)
UCUUUGGGCUGAAAAAGAAACCCUUUGAUCACAAUCCGGGUGUAGGGACCAAGGCUGGAAAAGUGAUGAAGCUUCCUCCCACUGCUGCAAGAAAAAGGCAGAGGCUUCAG	1.2
AAUCGCUGGAUAAGCAAAUACAUGGGUCCUGUGCCCUCUCCCUUCACACCAUGGGAUACAUCUGUAUGGAGACGGUUCUUUUCUAGAUUUCCUCUACCUUUCUGCUCUUA	0.2
ACAGCUGCUGGCGCUACAAUUAGUGAGGCGAAAAUAACCACGAUCCACAUUACCAUCAAGCCCUUGACAUUCGCAGCACUUGCUGUGGGGAAAGCAGGCCAAGAACUUGU	0.385
CGGUCCUCUGGGCAGUGUGGGGUGCAGAAUGGGGUGCCUAGGCCUGAGCGUUGCCUGGAGCCUAGGCCGGGGGCCGCCCUCGGGCAGGCGUGGGUGAGAGCCAAGACCGC	1.03
UUUUUUUCUCUAGGGAGAGGUACAGUGUUUAUAUUUUGGAGCCUUCCUGAAGGUGUAAAAUUGUAAAUAUUUUUAUCUAUGAGUAAAUGUUAAGUAGUUGUUUUAAAAUA	0.438
AUGGCUGGGCAGUUGAGCACCUGCUCUUCACCUGCCCUGGCUAUGGCUGUGGCAAGCUGUGAGCCCUCGCCUUGUCUGGGCCAAUCUGAGGACUGAACUGACCAGAUAGC	0.402
UAGUGUGUGCCUUCUAUAAAGGAGAAAGCAGCAAGGCCAUGUCCUUAGCAGGAACCUUUGCUAGCCACCUAGUGAAUGCCUGUAACAGGGUCUCUGAGCUGACUCUGUAU	0.226
UGCUUCCUUACCUGUCAAUAACAAUGGUGGCCACCUGGGUCCCAGCACUUGGCUGGUGGAGAGAUUUUUUUCAUUAUGGAGCUAAUAAAGGGUCCCUACGUUUUACAUUG	0.245
CACACUUUGGGCAGAAAUAAGUCACGAUCAUGAAGGAUGGACUGCCUGUCUCACCUGUCCCACAGAACCUAACCUAAGCUAGCUAGUGUUGUGGAGAUGAGAUUUGCAGU	0.587
UGGCUGUUGAACCUUGAUGUAGCCCCUACUACAUACACUACAAGUUAUGCCUUCUGGCUACUACAGAAUCUCCGCAGACCUUUUAGUUAUGAGUAGAAGCAAUAAGAAGG	0.452
UGGAAACAGACUUCUGCCUACAUCGAGUCCUACGAAUUGGGGUUGUAUUGAUGUCACUCUGGUGCCUUAGAAGUCAGUCGUCCUUGGGAAGGUGUCUGCGAGACUGGGCC	0.809
GAAAUAUGGAUAGUUGUGGCCACCUGCUGACUAUUUGUGGUUUAAAAUAAAAAGGUUUUCUUGUCUGAAAAUAUCCACCUGUUUGUGUCUUUACUAAAUGUAAGAAGUGA	0.784

Sample 6
Target: Protein max, full length (MAX, Homo sapiens, UniProt P61244-2, residues 1-151)
Technique: protein-binding microarray
Molecule type: double-stranded DNA, one strand shown
Matrix: in vitro
Tested at: not given
Notes: k-mer, scored over probes, only values ≥0.25
Reading: higher = stronger binding
Strand	E-score
AGAACACG	0.39
CGTGTTAG	0.388
CACGGGGC	0.369
CCCATGGC	0.294
AACGAGGA	0.29
AAGGCATG	0.369
ACCTCACG	0.281
AGCCGCAT	0.296
TGTGACAA	0.268
ACCTCGCG	0.284
AATGTGAC	0.33
ATGCTTAA	0.301
CCATGCGG	0.459
ATGCATGG	0.321

A few entries again (sample 2):
Strand	log2 enrichment
UGGCCCUGGUGGCAUGCGGGGAGGAAGAGGUGGCCUCAUGGAUCGUGGUGGUCCCGGUGGAAUGUUCAGAGGUGGCCGUGGUGGAGGCAG	1.22
CUCAAGUCCUGUGCUACACAUCGUAUGUACCGAAUCGGGAAGGAAGGGGAAGGGAAAGUAUUAUGUUACGCCGUUCGGAUCUGCACUUCC	0.585
GUCCUGUGCUACACAUCGUAUGUACCGAAUCGGGAAAAAAAGGGUUUUUUUGGGAGGGAAAGUAUUAUGUUACGCCGUUCGGAUCUGCAC	0.292
CACAGACAACACGCACCCACACAGACACAGAGGGAAGGGGUUGGGAUGGGGACAGGGUGCACAGCAGGGCGGGGUAGGACCCCAGCUCCU	-0.404
UGGCCCUGGUGGCCUGCGGGGAGGAAGAGGUGGCCUCAUGGAUCGUGGUGGUCCCGGUGGAAUGUUCAGAGGUGGCCGUGGUGGAGACAG	0.836
UAAUUUUAGAGGAGGAUCUGAUGGAUAUGGCAGUGGACGUGGAUUUGGGGAUGGCUAUAAUGGGUAUGGAGGAGGACCUGGAGGUGGCAA	-0.629
UCCUGUGCUACACAUCGUAUGUACCGAAUCGGGUUUUUUGGGUUUUUUGGGGUUUUUUGGAAAGUAUUAUGUUACGCCGUUCGGAUCUGC	-0.0521
